# Measurements collected from several papers.
# Each numbered part is a random draw from the data of one study; scales do not carry over between parts.

# Sample 1 — technique: RNA Bind-n-Seq; form: RNA; medium: in vitro; concentration: 365 nM; reference: no-protein control; reading: higher = stronger binding
# Target: RNA binding protein fox-1 homolog 2, RRM domain, GST-SBP tag (RBFOX2, Homo sapiens, UniProt O43251-10, residues 100-194)
# Notes: natural RNA segment, single round, ends assumed
# All sequences stand within: GGGAGUUCUACAGUCCGACGAUC … UGGAAUUCUCGGGUGCCAA
# Construct (chain): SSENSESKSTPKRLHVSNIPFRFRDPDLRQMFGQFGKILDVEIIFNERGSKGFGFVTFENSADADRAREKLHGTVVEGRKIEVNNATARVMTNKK
Sequence,RBNS enrichment (R)
AACCACCACCAGAGAAAAGCAGGCCUGUGCAGUGCAGAUGCAAUGGAACGCAUCCCACCUUGCCAAAGCACUCAUACCAGUCGACUGUGCUCACUAGCAGGACACUGAAG,2.58
GUGCGGUGGGACUCCACAUGCGCCGGAAGGAGCUUCAGGUGAGCACUGCUCAUGUGUGGAUGCCCCUGCAACAGGCUUCCCUGUCUGUAGAGCCAGGGGUGCAAGUGCCA,0.24
CAGUUGCCACACCAUGGGGUGGAGACGUGGGUCACCACGGGCUUGGGAGCAAGCGCCUUCUGCAGCACAGGAAGCCGAAGCUGGGGUCAGGUGAGGUCGCUACCCCUGGA,0.282
GAGGGAGUAUGAAGUUUCCAUUGAGCCUCAAGUCUACAAGUCUGCAGGACCCAGGACCUCUGGUUCUCUCCUUGUUCUGGGCAGUGAGGAGCAUAGGACCUGGUCUCUGG,0.444
AGUUGAGAGACCAGGCAACCCACUGUUGAGAACCACUCUCAGUCAGCUGGUAGGGACAUUACACCAGGUACCCCGUGGCUAUCCCUACCCAGUGUCGGUGGCCCGGCACA,0.195
UUUAAAUGGCUAUUGAAAUUUAUAAUGGCCCUUCAAUUCUUACUAUAUGCUUAAUAGUGUGCUAAAUAAGUGCUCUUCUGUCUUUUAUUAGAGCUUCUCAGAAACCCUAA,0.629
UGAGCUUGCCAGUGGUGACUGCCAGGAACGUCCUAUGAUCCACUUUGUUGGUUGUUGUUGCAGAAGACUGAACUGUUUUGGAAUAUUUAACAAUUACAGAAACAGUCAAG,0.773
CCCCUGUGUGCAUUAGGAACCCUUCUCUCCUCUGAGAAAGCUCAGAGGGAGCACUGCCUCACAAACUGUGAGACUGCGUUUUUUAUACUUGGAAGUGGUGAAUUAUUUUA,0.557
AGGGGGGAUGGGAAACAGCUGACUUCAAUUACCGUGCUGUAUAUUACCGUGCUGUAUACCUAUCUACUUUUCUGGGCAGCUGAUGGAGCUCUGGAAGAAACACCAAAGCC,0.461
CAAAAUAAAUUUCUGAAUUAUGCAUCAUAAAGCUUUGAAAUUUCUUUUUUAAUUGAUGGGAUACUAACCUUAAAUUCUAGCGUUGGUGCUUUGCACCAAGAGAAAGCUUU,1.35
UUUGUAUUAGAGAAGGCACUUUGAUUGUACAAUACUUCACAUUGCUUUUUUAAUGCAUAAAGGUUUGAAGAAAAAUCAGACUCUGCCCCCAUGGUGAGUUAGCAUGAUUC,3.15
UCCUAGUCCCCGUGAGCCCUGCAGAGCCCAGUGGAGUACCCUCCCAAUAAAGGCUGUGGCGAGGCUGGGCCCAUGUCUGUAUGUGUGGUGGGUCCCACAAGGGUGACAGG,0.811

# Sample 2 — technique: protein-binding microarray; form: double-stranded DNA, one strand shown; medium: in vitro; concentration: 2200 nM top; notes: 60-bp whole probe; added: salmon DNA 0.4 mg/ml; reference: random background probes; reading: higher = stronger binding; all sequences stand within: GCCTAGCAC … GTCTTGATTCGCTTGACGCTGCTG
# Target: Interferon regulatory factor 7, full length, phosphomimetic (IRF7, Homo sapiens, UniProt Q92985, residues 1-503, S471D/S472D/S475D/S476D/S477D/S483D/S484D/S487D)
# Construct (chain): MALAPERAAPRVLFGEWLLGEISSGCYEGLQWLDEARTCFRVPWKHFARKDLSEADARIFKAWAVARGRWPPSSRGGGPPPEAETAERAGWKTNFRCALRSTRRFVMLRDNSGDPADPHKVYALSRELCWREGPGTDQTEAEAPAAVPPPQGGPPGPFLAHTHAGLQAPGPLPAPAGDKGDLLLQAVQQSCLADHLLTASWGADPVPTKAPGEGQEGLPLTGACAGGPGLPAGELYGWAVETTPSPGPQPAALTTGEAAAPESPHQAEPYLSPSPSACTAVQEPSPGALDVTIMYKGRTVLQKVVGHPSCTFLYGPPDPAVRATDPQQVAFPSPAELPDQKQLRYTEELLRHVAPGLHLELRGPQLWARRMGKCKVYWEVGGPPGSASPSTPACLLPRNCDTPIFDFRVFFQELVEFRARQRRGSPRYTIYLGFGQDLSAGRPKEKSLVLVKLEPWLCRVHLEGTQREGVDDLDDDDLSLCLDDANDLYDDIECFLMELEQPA
Sequence,fitted relative affinity [z-score]
GATGGACTGGACTTTCGGGACGTGCTA,2.53
TTAGATTTCCGGTATCGATTAGTGCTA,1.4
AATAAAATGAATATTAGAAGGTGCTAG,-1.18
GACGGTCACGGTCTCGGGACGTGCTAG,-0.845
AATTTTTTTTCTAACTAAAAGTGCTAG,-0.0773
TTAGGTTTCGGACTGGGGTAGTGCTAG,3.38
GACGGCATCGACTATCGGGACGTGCTA,-0.671
GACGATATCGGGTAACGAGACGTGCTA,-0.311
GGCGATCTCAGTCTCGAGACGTGCTAG,-0.164
CTAGGACTGGGTTTCGGTTAGTGCTAG,3.4
ATGGTCCTCTCTCTATTCAGGTGCTAG,1.42
TTAGAACTGGGGTATCAATTAGTGCTA,-0.103
TGTCCTTTCACTTTAACTTAGTGCTAG,5.37
GACGGCTTCGGTTTCGGGACGTGCTAG,3.66
GACGGACTGGGTCTCGCGACGTGCTAG,-0.735
GTAGATTTCGGGACTGGATTAGTGCTA,1.18
GACGGTCTGCTTATCCTGACGTGCTAG,0.662
TACGGTATCCTTATCCTGACGTGCTAG,1.43
ATAGGTATCGGGTATCGGTTAGTGCTA,0.808
AGGAATCTTGAGTTAGAGACGTGCTAG,-0.612
TCACCTCCCTGTTTCCAACTGTGCTAG,2.87
GACGGATTGGGGTATCGGGACGTGCTA,-0.122
ACTTTTTTTAATTGAGAAGCGTGCTAG,0.142
TTAGGTTGCCTTCTCCTTTAGTGCTAG,0.998
TTAGGACTGGGTGTCGGTTAGTGCTAG,-0.326

# Sample 3 — technique: RNA Bind-n-Seq; form: RNA; medium: in vitro; concentration: not given; reference: input RNA pool; reading: higher = stronger binding
# Target: RING finger protein unkempt homolog, zinc fingers 1-6, GST-SBP tag (UNK, Homo sapiens, UniProt Q9C0B0, residues 30-357)
# Notes: RNA with constant flanks, human and mouse sites, ends assumed
# All sequences stand within: GGGAGUUCUACAGUCCGACGAUC … CAACAGAGGAUUGAGCAUCA
# Construct (chain): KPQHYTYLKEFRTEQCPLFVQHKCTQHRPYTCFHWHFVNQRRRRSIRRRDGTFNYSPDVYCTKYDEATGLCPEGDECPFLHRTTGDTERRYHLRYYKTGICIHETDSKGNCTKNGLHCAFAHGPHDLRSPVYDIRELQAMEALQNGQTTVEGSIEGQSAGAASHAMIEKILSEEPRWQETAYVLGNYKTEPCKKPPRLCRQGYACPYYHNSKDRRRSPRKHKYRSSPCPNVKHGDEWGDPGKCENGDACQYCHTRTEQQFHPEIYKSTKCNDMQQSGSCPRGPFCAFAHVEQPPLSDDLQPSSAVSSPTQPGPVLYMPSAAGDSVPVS
Sequence,bound/input enrichment
AAAAGGGAUUUGGGCCACUACCCAGCUAUUAUUGUUCAGUCAGUUGUGUCUCCUACCCACAUAGACAUGUGUGUGCAUAUGUACAACACACACACACACACACACACACACACACACACA,1.22 ratio
GAAGAAAAUGGCGAGGACAGAGAUACAGCAAGUGAAAAAGAAUUAAAUGGAGAUUCUGAUUUAGAUCCUGAAAAUGAAAGUGAAGAAGAAUGAAGACAGCAAAGCAAGCCGGUCAAACUA,0.531 ratio
UUCCCUGGAGAGUUCAUGAAGAGCUGGAGUGAUUGUCUCAACAAGGAGGGCUUUGACAAAGUAGACAUCAGCGCUGUUGUGGCAUACACCAUUGCUGUGAAAGAGGACGGUGAGCUCAAC,0.443 ratio
AAUGACUAUGAGAAUGGUUUAGACCUUCUGUUUCACCCAGUUACUGCAAAGCCUGCAUCGUGGCAACAUUCAAAGAUAAUUGAAGCUUUUAUGAGUCAGGGAGAGCACAAACAGGCUCUC,0.209 ratio
AUGGACCUGGCAGCCAAUGAGAAGGCCGUUCAUGCAGACUUUUUUAAUGAUUUUGAAGACCUUUUUGAUGAUGAUGAUGUCCAGUGAGGCCGCCCGGUCCUAUGUGCUCCAUGUCUGUGA,0.155 ratio
UCUCUCUCCUGUCCUUUCUUUUCUUUCUCUCUCUCUUUCUUUCUUUCUUUCUUUCUUUCUUUUUUUUUAACUCCUCAUAUUAUGUUCAGACGCUCAUACUGUCAAGGUUUGUGUACAUUA,2.52 ratio
CUCGAUGAGUUAGAAGAUUUUACUGACAAUUUGGAGCUAGAUGAAGAAGGAGCAGGCGGGUUCACGGCUAAAGCAAUCGUUCAGAGAGACAGAGUGGAUGAAGAGGCCUUGAAUUUCCCC,0.457 ratio
AGCAGACCAAAAAUUCUGAUGACCGCAUCUAGAUUAUUUUUUUAUAAAAAUGAUUUUCACUAUAGCUAUGUUACGCUAAGCUACUGUCCAAUCUCUUGUGAUGUGUAACUUUUACAUGUG,2.39 ratio
AAGGAAGGGGUGGGCGUGAGAGCACUGGUGUUCGUACACUCAGCAGGAAGCUGCUGUCUGGCUCUGCUGAUCCAGAACGGCACUGCCUCAAGAGGGUGUCUGUGUUGCCUCGGUGGCCCC,0.0962 ratio
AUAUUGGAGAAUUGGGAGAAGUCUCUUUGGUUUGGAAAAAAAAAAAAGGAAUCUUCAGCCUAGAUCACUUUCUUAUCCGGACUGGGAUAUUAAAUAUACGACACAUCCAGGAGUUUAUUG,0.392 ratio
GUUGUACCUAAAGGAAAAGGAGAACAGAUUGCAAGGGAGCAUGGUAUUAGGUUUUUUGAGACUAGUGCAAAAGCAAAUAUAAACAUCGAAAAGGCGUUCCUCACGUUAGCUGAAGAUAUC,1.88 ratio

# Sample 4 — technique: protein binding microarray; form: double-stranded DNA, one strand shown; medium: in vitro; concentration: not given; reference: not given; reading: higher = stronger binding
# Target: Histone acetyltransferase KAT6A, winged helix 2, GST fusion (KAT6A, Homo sapiens, UniProt Q92794, residues 85-181)
# Notes: 8-mer, flanks averaged, mean of 2 arrays, mostly near background
# Target sequence (chain): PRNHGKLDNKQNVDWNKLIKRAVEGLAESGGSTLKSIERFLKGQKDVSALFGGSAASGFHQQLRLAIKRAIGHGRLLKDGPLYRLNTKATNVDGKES
Sequence,E-score
AGACGTCC,-0.194
ATATGGCA,-0.126
ACCAGGAT,-0.0582
GACGAGTC,-0.0497
GGTGAGTA,-0.0167
CTCGGTGA,-0.00413
AGCTCAGC,-0.084
AACTCAGC,-0.000625
GAGGGATA,-0.0806
CAACCGAA,0.141
GACAGGGC,0.0701
CGACTGAG,-0.0486
CGTGAGAG,-0.0593
GGAACTCA,-0.129
CTAGGGCC,0.00737
CAACACTC,0.0943
GATAATAA,-0.0284
CGAGTGGC,0.0419
ATCGATAG,-0.0153
GGCCTCGA,0.0129
TGCCTTAA,-0.0345
ACGAACCC,0.0839
AGGGACAA,0.0228
